# Measured values pooled from the literature.
# A part holds a random share of what one study measured. Substitutions count along the parent as printed.

# Block 1
# Target: Ras GTPase-activating protein-binding protein 1, C-terminal RGG region (G3BP1, Homo sapiens, UniProt Q13283)
# Chain of UniProt Q13283 (whole entry, looked up): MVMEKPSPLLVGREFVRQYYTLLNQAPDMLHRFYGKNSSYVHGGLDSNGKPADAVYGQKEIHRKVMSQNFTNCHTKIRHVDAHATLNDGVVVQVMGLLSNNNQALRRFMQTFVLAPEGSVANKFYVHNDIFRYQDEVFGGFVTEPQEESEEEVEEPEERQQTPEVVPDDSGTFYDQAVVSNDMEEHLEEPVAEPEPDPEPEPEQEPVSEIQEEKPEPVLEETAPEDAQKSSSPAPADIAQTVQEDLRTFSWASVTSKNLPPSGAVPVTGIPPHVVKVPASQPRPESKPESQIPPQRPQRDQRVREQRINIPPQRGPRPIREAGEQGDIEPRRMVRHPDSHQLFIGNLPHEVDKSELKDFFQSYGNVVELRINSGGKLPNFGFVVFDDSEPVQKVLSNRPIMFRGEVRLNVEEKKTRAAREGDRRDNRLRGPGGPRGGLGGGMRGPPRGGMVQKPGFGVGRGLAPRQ
# Technique: RNA Bind-n-Seq
# Form: RNA
# Sample: in vitro
# Concentration: 1 µM
# Notes: whole 134-nt RNA, ends assumed
# With: 150 mM KCl
# Relative to: input library
# Reading: higher = stronger binding
# Shared flanks, not repeated: GGGAGUUCUACAGUCCGACGAUC … UGGAAUUCUCGGGUGUCAAGG
Sequence,log2 enrichment
UCCUGUGCUACACAUCGUAUGUACCGAAUCGGGGAAAGGGGUUUUUUUGGGGAAAGGGGAAAGUAUUAUGUUACGCCGUUCGGAUCUGCA,2.13
AAGUCCUGUGCUACACAUCGUAUGUACCGAAUCGGGGCCCCGGCCCCGGGGCCCCGGAAAGUAUUAUGUUACGCCGUUCGGAUCUGCACU,-2.54
AAGUCCUGUGCUACACAUCGUAUGUACCGAAUCGGAAAAAGGAAAGGAAAAAAAGGAAAGUAUUAUGUUACGCCGUUCGGAUCUGCACUU,-1.87
UAACUUUAGAGGAGGAUCUGAUGGAUAUGGCAGUGGACCUGGAUUUGGGGAUGGCUAUAAUGGGUAUGGAGGAGGACCUGGAGGUGGCAA,-1.32
AGUCCUGUGCUACACAUCGUAUGUACCGAAUCAAACCCCCAAACCCAAAUUUUUAAAAAAGUAUUAUGUUACGCCGUUCGGAUCUGCACU,-0.868
CCUGUGCUACACAUCGUAUGUACCGAAUCGGGGAAAAAAAGGGGUUUUUGGGGUUUGGGGAAAGUAUUAUGUUACGCCGUUCGGAUCUGC,0.524
UCCAGUCUAGCUUUGGAGAAGCGCCAACCUGCUCACUGCCGCCGACCAGACUGCAUGUUUGGUUGUACUUGUUUGAAAAGAAAAGUUGUA,-1.03
UCAAGUCCUGUGCUACACAUCGUAUGUACCGAAUCGGGAAGGGGAAGGGGAAGGAAAGUAUUAUGUUACGCCGUUCGGAUCUGCACUUCC,-0.678
UGGCCCUGGUGGCAUGCGUGGAGGAAGAGGUGGCCUCAUGGAUCGUGGUGGUCCCGGUGGAAUGUUCAGAGGUGGCCGUGGUGGAGACAG,1.49
UAACUUUAGAGGAGGAUCUGAUGGAUAUGGCAGUAGACGUGGAUUUGGGGAUGGCUAUAAUGGGUAUGGAGGAGGACCUGGAGGUGGCAA,-0.952

# Block 2
# Target: RNA binding protein fox-1 homolog 2, RRM domain, GST-SBP tag (RBFOX2, Homo sapiens, UniProt O43251-10, residues 100-194)
# Technique: RNA Bind-n-Seq
# Form: RNA
# Sample: in vitro
# Concentration: 365 nM
# Notes: natural RNA segment, single round, ends assumed
# Relative to: no-protein control
# Reading: higher = stronger binding
# Shared flanks, not repeated: GGGAGUUCUACAGUCCGACGAUC … UGGAAUUCUCGGGUGCCAA
# Residues (chain): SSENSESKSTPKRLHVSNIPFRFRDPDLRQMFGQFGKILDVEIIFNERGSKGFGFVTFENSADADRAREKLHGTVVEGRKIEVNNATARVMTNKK
Sequence,RBNS enrichment (R)
GAGUAGUGCAUUUAAUUAUUUUUUAAAAAACUUUUUAAGUACUUGAAUUUUAUAUCAGGAAAACAAAGUUGUUGAGCCUUGCUUCUUCCGUUUUGCCCUUUGUCUCGCUC,0.467
CCUAAUGUAUUAGUUUCCUUAUACGAGUUAUGCUUUUAGUACUGUAUCUCUCUCUGCUUAACUAAAGGUCACAAAGAUUUUCUCCUAUGUUUUGUUCUGGAAGUUUUAUA,0.782
CUUCCACCUUCAUUUCCCAAGUGCUGGGGUUAUAGGUUUGCACCAUGACACCCGACUUCGCCCUCAGCUUUCCACCCCGACCCUCCCACUACAUCUCAAGUGUUACAGAC,0.826
AAUUAUAGGUCCUCACUCUUGACAGGGCUGAGCAAACAGAAACUGUCCACCAGUGAUCUCAAGCAUGGCUUAGGGCUGGCAGGGACCUGAGCCCUCAUUUCACAAUGUGA,0.537
GAACGUAUCAAUACAGUUUAUAAAGCCAAGAAUUGCUAUGAUUUAAGACUAAGAUCUGUCUUUUUGGUGACUAACCCUUCAAUUCUUUCAACUCCUGUUAAUACCCAUAA,0.39
UUUCCAGGGCUUGUUGGUACAAAUCAAAGCCAAGACCAAUUAAAAGAAAUGUAUUUUUAUCUUCGGAUUGGUCUUUGAUGUUGCCUCUGUGUGUAUAAAAAUAGACCUCU,0.336
CAAACCUGGUUACUCAACGUUAGCAGUGAAGCGAGCCGGUGGUGACUGUGGCUGGAAUGUGGUGGGCUUGGUGACUUUUCUUUCUGCCCUCCCUUGAGUGCUCACCCUCC,0.376
CUGGGGCCUGGCUGCAGAGACCUGCUCUUGAAUAGGGCUGCCUUUGGGAUCAGGGAGCCGAGCAUACUGGGCAAGGCUCAUCAUGUUCCUUUGUGGAAGUGGUUACUUGG,0.546
CUUUAGGAACUGCCUGUCCAUGAGAUGUCCCGUGAGGUCAUAGCUCCCUCUUUAGGGACUGUCUGUCCAGUGACAGAUUAGCCAUAGAGUCAUGACACUUAGUAAGUUUG,0.349
UAUGUUUUAAAAAACAAAUUUGAGAAUACAUUUAAUCAUAGGGAUAUAGAUAUAAGCACCUCUCUAAAGAAUCUUUAGUUUCCGACGUUGAAUUAUAGACCAGUUUGAGU,0.506
AGCGCCAUGAACAUCAAGCUAGGGCCCGCCCUGAAGAUCUACGCACGCAUCAGCAUGCUCAAGGACUCCUAGAGUCUCUGCUGCCUGCCCACUGCACCACCAGGCAGCCA,3.43
GCAUGAGCUAGAGUGGAUAUUCCUCCCCUAGAAGAGGAGAUGGGAGGAAAUGCAGUUUCAUGUAAUCCCUGUGAAGAGUGCCUAUGCCCACAGCCCAGUGGGUCCUUGUU,3.22

# Block 3
# Target: Sal-like protein 4, full length isoform B (SALL4, Homo sapiens, UniProt Q9UJQ4-2, residues 1-616)
# Technique: universal PBM
# Form: double-stranded DNA, one strand shown
# Sample: in vitro
# Concentration: not given
# Notes: 8-mer, flanks averaged, mean of replicates
# Reading: higher = stronger binding
# Target sequence (chain): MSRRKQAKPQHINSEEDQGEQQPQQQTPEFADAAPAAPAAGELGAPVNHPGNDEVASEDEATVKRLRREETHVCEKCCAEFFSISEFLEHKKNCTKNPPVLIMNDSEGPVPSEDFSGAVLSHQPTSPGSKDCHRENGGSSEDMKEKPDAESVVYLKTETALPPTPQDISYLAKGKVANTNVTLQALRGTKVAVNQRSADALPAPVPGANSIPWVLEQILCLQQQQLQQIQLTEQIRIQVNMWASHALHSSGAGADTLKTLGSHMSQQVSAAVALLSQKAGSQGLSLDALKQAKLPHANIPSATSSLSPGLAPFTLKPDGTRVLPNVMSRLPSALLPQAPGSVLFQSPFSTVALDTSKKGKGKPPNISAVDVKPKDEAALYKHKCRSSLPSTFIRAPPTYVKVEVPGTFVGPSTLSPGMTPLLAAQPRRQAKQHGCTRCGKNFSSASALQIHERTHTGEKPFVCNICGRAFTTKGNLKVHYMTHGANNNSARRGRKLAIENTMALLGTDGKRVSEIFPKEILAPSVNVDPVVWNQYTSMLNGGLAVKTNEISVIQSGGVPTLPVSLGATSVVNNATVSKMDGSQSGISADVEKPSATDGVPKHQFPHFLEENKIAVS
Sequence,E-score
CCCAGGAC,-0.404
AACTTTTA,0.24
CCCTCCAA,-0.255
CTAACTAC,-0.0762
ACTCTCGA,-0.078
CGGCACAG,-0.178
ATGTAACG,0.252
ATATCGGC,0.0963
TAAAACAA,0.364
AGTGTAAG,0.101
CCATGCCG,-0.161
CGGAGGTC,-0.232
GGAGTCTA,-0.105
CAGGACCG,-0.243
CCCTGTTC,-0.313
CACGCCCC,-0.339
CTTGTTAC,0.118
GGCTGGTA,-0.277
ATGTAGCA,0.11

# Block 4
# Target: CCND1, cyclin fold, Cln2 fusion (human)
# Technique: yeast growth competition, sequencing
# Sample: yeast
# Notes: weak parent motif
# Relative to: not given
# Reading: higher = stronger binding
# Starting sequence: MASTL docking peptide (human); PMIAKNLMCELDE
Variant,normalised enrichment score
PMIAKNLMIELDE [C9I],0.114
PGIAKNLMCELDE [M2G],-0.023
PMIAKNLMCEKDE [L11K],0.000614
PMHAKNLMCELDE [I3H],0.0152
PMIAKNLYCELDE [M8Y],0.258
PMIAKNLMCHLDE [E10H],0.022
PMIAKNLMCETDE [L11T],0.16
PMIALNLMCELDE [K5L],0.695
PMIAKNLMCSLDE [E10S],-0.125
PMIAMNLMCELDE [K5M],0.445
PMIAKNLMCEQDE [L11Q],0.248
PMIAKCLMCELDE [N6C],0.0628
PMIAKALMCELDE [N6A],-0.0667
PMIAKNLMCELRE [D12R],-0.0421
PMIAKNLMGELDE [C9G],0.281
PMIAKNLLCELDE [M8L],0.268
PMICKNLMCELDE [A4C],0.328

# A few entries again (block 3):
Sequence,E-score
CGGCACAG,-0.178
CCCTGTTC,-0.313
ATGTAGCA,0.11
ACTCTCGA,-0.078
CTAACTAC,-0.0762
TAAAACAA,0.364
CGGAGGTC,-0.232
ATATCGGC,0.0963
CCCTCCAA,-0.255
GGCTGGTA,-0.277
